Results gathered from unrelated publications.
A part holds a random share of what one study measured. Substitutions count along the parent as printed.

Block 1 — technique: RNA Bind-n-Seq; molecule type: RNA; matrix: in vitro; tested at: 365 nM; baseline: no-protein control; direction: higher = stronger binding
Target: RNA binding protein fox-1 homolog 2, RRM domain, GST-SBP tag (RBFOX2, Homo sapiens, UniProt O43251-10, residues 100-194)
Setting: natural RNA segment, single round, ends assumed
Target sequence (chain): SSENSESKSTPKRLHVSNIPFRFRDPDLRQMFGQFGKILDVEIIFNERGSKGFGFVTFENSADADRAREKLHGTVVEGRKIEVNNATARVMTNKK
`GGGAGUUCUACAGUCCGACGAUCGGCCCCAGAUACAUACAUGCCCACAUGCACGCUUACAUGUUUAGAGCCAUCCUUGUUUCCAAAUAUGACCCUUCGCUUGAGGGCAACUGCAUAGGUACAUCUAACUCUGGUGGAAUUCUCGGGUGCCAA` — result for “RBNS enrichment (R)”: 1.93.
Under “RBNS enrichment (R)”, `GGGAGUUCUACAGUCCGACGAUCUAGUCCUAUUCAGAUACAUCAAAUAUCAGUGAAUGCUUUACUAUUCGCACAUUUAAGCAUCUUUGUUUUACAUAAAAUUAGAGUAUGAAAACCAGUGUUCAAUUUUUUAUUGGAAUUCUCGGGUGCCAA` is recorded as 1.22.
`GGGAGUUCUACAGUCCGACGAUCCAGAGGGCGACUGUACCAAGGCCACACCAGCUGACCAGCACACCUCUAUCCUUUUGAGCUCUUCUGUCUUUUUAUAGUAAGCUUCCUCCACCUGUGUUGCUUUUGUAACUUGGAAUUCUCGGGUGCCAA` — result for “RBNS enrichment (R)”: 0.522.
Under “RBNS enrichment (R)”, `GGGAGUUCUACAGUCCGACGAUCGCUAUGGCCCUAUGUCACUCUGCCCUCUUGGUUUCUGCUGCCCUACGGCAGCUGGUGGAAUCUAUUGGGCAAAAAGUCCUGCAACCCUCUUACCUCCAGGCUUUGGUGCUUGGAAUUCUCGGGUGCCAA` is recorded as 0.168.
`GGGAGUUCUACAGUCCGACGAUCACUCUGGUUACACGGAUCACCUUUGUUGUGCUAGAAUGGAAGCUACAUUUCUGGAAUGUGUGUACCCUGCUGGUGACUUUGCAGCCCCGCCUUGCCUGACCUCCCACCCUUGGAAUUCUCGGGUGCCAA`: “RBNS enrichment (R)” 2.54.
For `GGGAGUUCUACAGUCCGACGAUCUUUGCCCAUUUACACUUUUGAGACUUUUUGGUGGAUGUAAAUAACCCCAUUCUUUGCUUGAACACAGUAUUUUCCCAAUAGCACUUUCAUUGCCAGUGUCUUUCUUUGGUUGGAAUUCUCGGGUGCCAA`, “RBNS enrichment (R)” read 0.719.
`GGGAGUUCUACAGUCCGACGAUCAGAUCGCCCGCAUUCCGGAGGCCUUCAAGUAAACGGCGCGCCCCACGAGACCCCGGCUUCCUUUCCCAAGCCUUCGGGCGUCUGUGUGCGCUCUGUGGAUGCCAGGGCCGUGGAAUUCUCGGGUGCCAA`: “RBNS enrichment (R)” 0.357.
For `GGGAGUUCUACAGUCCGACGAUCUUCCAAAUACAUCCUGUUGGAUACUGAAUAGAUCAUAGAUAUUGUAGACUGAGAUCUGGGACUGUGUUGGGACCAUUCAGGUGAUAUGUCACUUCCACAAAUGGCAUCUCUGGAAUUCUCGGGUGCCAA`, “RBNS enrichment (R)” read 0.4.
Under “RBNS enrichment (R)”, `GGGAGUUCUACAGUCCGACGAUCGGUUCCUCCUGGUUUUCUUUUGUUACAACCACCCUUGCCUGUUUACAUUAAUUGCAAGGAGCAUAACGUACAGGCUGUAUGUACAAUCCUGGGCAUUGACUCUGUGACAUUGGAAUUCUCGGGUGCCAA` is recorded as 0.562.
`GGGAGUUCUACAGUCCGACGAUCCUGUUCUGGCUUUUUAUCUUCUUAGCUCAUCUUAAAUAAGCAGUACACUUGGAUGCAGUGCGUCUGAAGUGCUAAUCAGUUGUAACAAUAGCACAAAUCGAACUUAGGAUUGGAAUUCUCGGGUGCCAA`: “RBNS enrichment (R)” 0.329.
Under “RBNS enrichment (R)”, `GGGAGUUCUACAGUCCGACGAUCGCAUCCUCUUGGACCAGGGCUAGAAUGGGGAUUUCAGGUUUCUAUGAGCCUCCCCAUUACCCCUAAAGUAGAACAUUUUUUAAAUUGUGUUGCCACCACUUCUAAAAAUUUGGAAUUCUCGGGUGCCAA` is recorded as 20.6.
Under “RBNS enrichment (R)”, `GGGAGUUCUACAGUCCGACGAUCGUUACUGAAAUGAACUCUGCAGGAAUGGUGUUUCAGCGGGUGCGGCUUGACUGGUUUGAGUUCCCGAGGCCAAGGGGAAGCUUUAGCUUUGCUCUGCUUUUGAACCAGUGUGGAAUUCUCGGGUGCCAA` is recorded as 1.16.

Block 2 — technique: RNA Bind-n-Seq; molecule type: RNA; matrix: in vitro; tested at: not given; baseline: input RNA pool; direction: higher = stronger binding
Target: RING finger protein unkempt homolog, zinc fingers 1-6, GST-SBP tag (UNK, Homo sapiens, UniProt Q9C0B0, residues 30-357)
Setting: RNA with constant flanks, human and mouse sites, ends assumed
Residues (chain): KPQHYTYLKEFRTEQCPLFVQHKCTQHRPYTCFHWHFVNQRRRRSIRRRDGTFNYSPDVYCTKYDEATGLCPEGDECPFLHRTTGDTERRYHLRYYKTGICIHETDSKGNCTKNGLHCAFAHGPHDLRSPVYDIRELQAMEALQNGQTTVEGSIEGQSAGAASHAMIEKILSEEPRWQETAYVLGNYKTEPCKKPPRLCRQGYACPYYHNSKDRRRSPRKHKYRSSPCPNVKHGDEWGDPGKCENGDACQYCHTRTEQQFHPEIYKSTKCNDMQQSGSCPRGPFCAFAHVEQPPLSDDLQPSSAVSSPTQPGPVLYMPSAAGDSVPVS
`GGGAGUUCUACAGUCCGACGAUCGGGAUCACUCCGUCGCACCCACCAUGAUGGAAGACGACGGACAGCCCCGGACUCUAUACGUAGGUAACCUCUCCAGAGAUGUGACAGAAGUCCUUAUUCUUCAGUUAUUCAGUCAGAUCGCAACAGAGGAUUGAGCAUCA` gave a bound/input enrichment of 0.0549 ratio.
The bound/input enrichment of `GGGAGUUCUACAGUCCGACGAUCAAAGGCAGCUGUGUUAUUUCAUAAAUAACUUGGGAGAAACUGCAUCCUAAGUGGAAGAACUAGUUUGUUUUAGUUUUCCCAGAUAAAACCAACAUGCUUUUUAAGGAAGGAAGAAUGAAACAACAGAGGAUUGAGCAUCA` is reported as 0.209 ratio.
`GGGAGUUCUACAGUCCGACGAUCUGCUCCUGUUCACAAUCACACUGCUGCUCUAGAUACCUGUGUAUGGGAGCCAUGUCUUUAUUUUUACCUUGCUUACUCUGUUAUCCUCCUGCUAAAGGAUGCCUGAAGCUGUGCAGGAGGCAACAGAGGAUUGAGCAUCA` has a bound/input enrichment of 0.449 ratio.
For `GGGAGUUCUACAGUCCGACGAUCAGUAAGACCAUGAAUUAUGGCAUUUCUUAAAUGAAGCGUUCAAGAAGUGAGAGAAUGUCAUAGAAAAUAAAUGAUUUUUAAGUUAUGUCUAUUAAUCUGACUGUAGAUAUAUAUAUUUACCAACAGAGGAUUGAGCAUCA`, the bound/input enrichment was 0.703 ratio.
`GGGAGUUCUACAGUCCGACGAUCACAGUUAGCAAGCGAAGUGUUAAAUGGAGAAGAUGCUUGUUUUUAUUAAACAUUUGGAGAUUUAGAUAAUUUACAUUUUAACUGAAUGUCUAAAGUGAUUAUCUUCCCCUCCCUCCCCCACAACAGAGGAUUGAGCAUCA` gave a bound/input enrichment of 0.613 ratio.
With `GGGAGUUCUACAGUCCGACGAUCCUAGAGAUUUACUACAUCCGUCCUUGGAAGAGGAAAAGAAAAAACAUAAAAAGAAACGCCUAGUACAAAGUCCAAAUUCUUACUUUAUGGAUGUAAAAUGUCCAGGUUGCUACAAGAUCACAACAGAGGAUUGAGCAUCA` the bound/input enrichment was 0.516 ratio.

Block 3 — target: CCNB1, cyclin fold, Cln2 fusion (human); technique: yeast growth competition, sequencing; matrix: yeast; setting: strong parent motif; baseline: not given; direction: higher = stronger binding
Starting sequence: MICAL3 docking peptide (human); LQLRRQLSFSEDS
`R5T` — result for “normalised enrichment score”: 0.504.
`R4A` — result for “normalised enrichment score”: 4.45.
For `E11W`, “normalised enrichment score” read 1.54.
`F9A` — result for “normalised enrichment score”: -0.0534.
For `E11D`, “normalised enrichment score” read 4.88.
`L3A`: “normalised enrichment score” 2.33.
Under “normalised enrichment score”, `R5G` is recorded as 0.313.
`R4I` — result for “normalised enrichment score”: 4.61.
`D12I`: “normalised enrichment score” 3.85.
`Q2H`: “normalised enrichment score” 4.58.
`S8L`: “normalised enrichment score” 1.85.
Under “normalised enrichment score”, `R4T` is recorded as 2.26.
`R5H`: “normalised enrichment score” 0.362.
Under “normalised enrichment score”, `S8Y` is recorded as 1.11.
Under “normalised enrichment score”, `L7V` is recorded as 0.352.

Block 4 — technique: protein binding microarray; molecule type: double-stranded DNA, one strand shown; matrix: in vitro; tested at: not given; baseline: not given; direction: higher = stronger binding
Target: Histone acetyltransferase KAT6A, winged helix 2, GST fusion (KAT6A, Homo sapiens, UniProt Q92794, residues 85-181)
Setting: 8-mer, flanks averaged, mean of 2 arrays, mostly near background
Construct (chain): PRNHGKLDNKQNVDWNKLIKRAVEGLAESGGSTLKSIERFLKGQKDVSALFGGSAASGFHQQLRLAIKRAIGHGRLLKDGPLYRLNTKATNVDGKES
With `AGAGTGTA` the E-score was -0.215.
The E-score of `AATATATA` is reported as -0.0804.
With `AGATACCG` the E-score was 0.0506.
`CCGGTGCC` has an E-score of 0.0591.
For `ATTGAAGA`, the E-score was 0.00831.
`TGGTCTAA` gave an E-score of -0.141.
`GTCCCGCA` has an E-score of 0.0328.
With `CGTATGTA` the E-score was -0.346.
`GTACGTGA` has an E-score of -0.218.
With `CGCTGGGA` the E-score was 0.121.
With `CTGGCGGC` the E-score was 0.168.
`CCCCGATC` has an E-score of 0.147.
`GGCAGCAA` has an E-score of 0.115.
With `TAAGCGAA` the E-score was -0.005.
`GCCGCCCA` has an E-score of 0.101.
`TATTCACA` gave an E-score of 0.0274.
For `CCTGCGCA`, the E-score was 0.024.
The E-score of `AGATTTCG` is reported as 0.12.
With `ATGGTGGC` the E-score was -0.195.
For `AGGCGCGG`, the E-score was 0.109.
The E-score of `CTCATGTC` is reported as -0.0266.
With `CCACGTCG` the E-score was -0.0411.
`CCTACTCC` gave an E-score of -0.134.
`ACCATAGT` gave an E-score of -0.0641.
The E-score of `TCAGGAGA` is reported as 0.132.

Block 5 — technique: protein-binding microarray; molecule type: double-stranded DNA, one strand shown; matrix: in vitro; tested at: not given; direction: higher = stronger binding
Target: Myc proto-oncogene protein, bHLH-zipper, MAX partner unstated (MYC, Homo sapiens, UniProt P01106, residues 368-449)
UniProt P01106, sequence (368-449, looked up): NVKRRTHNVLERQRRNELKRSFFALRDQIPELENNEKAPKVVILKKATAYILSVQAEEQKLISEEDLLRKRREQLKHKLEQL
Setting: k-mer, scored over probes, only values ≥0.25
`ACACGTGT` has an E-score of 0.496.
For `GCACGCTA`, the E-score was 0.35.
For `CCAGCACG`, the E-score was 0.299.
For `ACCATGAG`, the E-score was 0.405.
For `GCATGACA`, the E-score was 0.333.
For `CCTCATGA`, the E-score was 0.346.
With `CATGTGAG` the E-score was 0.422.
With `ATCACCAC` the E-score was 0.259.
With `CTCGCCAC` the E-score was 0.273.
`CATGCACA` has an E-score of 0.427.
`GCATGAAC` has an E-score of 0.268.
`ACCACATG` gave an E-score of 0.476.
`AGGGGTGG` gave an E-score of 0.296.
For `CGCGCACG`, the E-score was 0.404.
`GTGCCCCA` gave an E-score of 0.261.
With `ACGTGACA` the E-score was 0.426.
With `CTCATGTC` the E-score was 0.323.
`ATCGCGTG` gave an E-score of 0.402.
With `CATGGTGG` the E-score was 0.366.
For `GTGAACAC`, the E-score was 0.282.
The E-score of `ACACCTGG` is reported as 0.256.
`CCATGCTA` has an E-score of 0.36.

Excerpt of the above (block 4):
With `AGATACCG` the E-score was 0.0506.
`CCGGTGCC` has an E-score of 0.0591.
For `ATTGAAGA`, the E-score was 0.00831.
`TGGTCTAA` gave an E-score of -0.141.
`GTCCCGCA` has an E-score of 0.0328.
With `CGTATGTA` the E-score was -0.346.
